Published values pooled from the literature.
Several values in a cell are separate wells, animals, samples, runs or records.

For `Oc1cccc(C2CCCN(CCc3c[nH]c4ccccc34)C2)c1` (stereo not drawn), the IC50 was over 20 µM (Plasmodium yoelii; 17XL; 384-well).
For `COc1ccc2c(c1)CCc1c(C(=O)NCCc3nc4cc(C)ccc4[nH]3)n[nH]c1-2`, the IC50 was 0.57 µM (Tetrahymena pyriformis and Klebsiella pneumoniae; virulence in co-culture).
`COc1ccc(C[C@H](NC(=O)[C@H](C)NC(=O)CN2CCOCC2)C(=O)N[C@@H](Cc2ccccc2)C(=O)C2(C)CO2)cc1` (stereo in doubt) has an IC50 of < 0.01 µM and 0.0065 µM (Plasmodium falciparum; parasite growth; K1, chloroquine resistant; 72 h, ring stage).
`Cc1cc(O)cc2c(C3CCN(CC4CCN(C(=O)/C=C/c5ccc(Cl)c(Cl)c5)CC4)CC3)c[nH]c12` gave an IC50 of over 20 µM (Plasmodium yoelii; 17XL; 384-well).
The IC50 of `CCCCCC[C@H]1C(=O)O[C@H](C)[C@H](NC(=O)c2cccc(NC=O)c2O)C(=O)O[C@@H](C)[C@@H]1OC(=O)CC(C)C` is reported as 0.012 µM (Human alphaherpesvirus 2; viral replication; Vero C1008).
With `Cc1nnc(SCC(=O)Nc2ccc(Br)cc2)nc1O` the IC50 was 2.48 µM (Tetrahymena pyriformis and Klebsiella pneumoniae; virulence in co-culture).
For `COc1ccc2c(-c3nc(-c4c(C)[nH]c5ccc(OC)cc45)cs3)c[nH]c2c1`, the IC50 was 0.1 µM (Human papillomavirus 16; viral replication, Hirt-qPCR; C-33-A; transient E1/E2-dependent ori replication).
For `O=C(Nc1nc2ccc(Cl)cc2s1)c1cc(=O)c2ccccc2o1`, the IC50 was 0.26 µM (Tetrahymena pyriformis and Klebsiella pneumoniae; virulence in co-culture).
For `O=C(NC1CCC(CN2CCC(c3c[nH]c4ccccc34)CC2)CC1)c1cn(Cc2ccccc2)c2ccccc12` (stereo not drawn), the IC50 was over 20 µM (Plasmodium yoelii; 17XL; 384-well).

For quick reference, copied from above:
For `O=C(Nc1nc2ccc(Cl)cc2s1)c1cc(=O)c2ccccc2o1`, the IC50 was 0.26 µM (Tetrahymena pyriformis and Klebsiella pneumoniae; virulence in co-culture).
